Experimental data pooled from the literature.
Protocols differ between the studies behind these lines.
PIK3CA M1043I: Phosphatidylinositol 4,5-bisphosphate 3-kinase catalytic subunit alpha isoform (PIK3CA, Homo sapiens, UniProt P42336, M1043I)
PIK3CA I800L: Phosphatidylinositol 4,5-bisphosphate 3-kinase catalytic subunit alpha isoform (PIK3CA, Homo sapiens, UniProt P42336, I800L)
PIK3CA: Phosphatidylinositol 4,5-bisphosphate 3-kinase catalytic subunit alpha isoform (PIK3CA, Homo sapiens, UniProt P42336)
PIK3CA E545K: Phosphatidylinositol 4,5-bisphosphate 3-kinase catalytic subunit alpha isoform (PIK3CA, Homo sapiens, UniProt P42336, E545K)

Nc1ncc2c(n1)-c1c([nH]c3ccc(C4=CCOCC4)cc13)CCC2  remaining binding (PIK3CA M1043I; binding, competition with immobilised ligand; 1 µM): 100%
CC(C)=CC1OC(C)(C)C2C=C3C(=O)C(Cl)=CC(O)C3C3C(O)C4OC4C(=O)C132 (stereo not shown)  remaining binding (PIK3CA (Homo sapiens, UniProt P42336, E545A); cell-free assay, competition with immobilised ligand; 10 µM): 60%
C=CC(=O)N1CCc2ccc(-n3c(=O)ccc4cnc5ccc(-c6cnn(C)c6)cc5c43)cc21  remaining binding (PIK3CA I800L; KINOMEscan; 1 µM; baseline: DMSO control): 56%
Cc1cnc2nc1Nc1cccc(c1)COC/C=C/COCc1cc(ccc1OCCN1CCOCC1)N2  remaining binding (PIK3CA M1043I; binding; 0.1 µM): 87%
CNC(=O)C1CCN(c2cc(C)c(F)cc2NC(=O)c2ccc(-c3cc(O)ccc3C)c(C)c2)CC1  remaining binding (PIK3CA I800L; binding, competition with immobilised ligand; 1 µM): 92%
CNS(=O)(=O)Nc1nccc(Cc2c(C)c3ccc(Oc4ncccc4F)cc3oc2=O)c1F  remaining binding (PIK3CA; binding, competition with immobilised ligand; 10 µM): 100%
CCN1CCN(Cc2ccc(C(=O)Nc3ccc(C)c(NCc4cnc5[nH]ccc5c4OC)c3)cc2C(F)(F)F)CC1  remaining binding (PIK3CA M1043I; binding, competition with immobilised ligand; 1 µM): 91%
COc1c(Cl)cccc1Nc1c(-c2ccncc2C#C[C@@]2(C)CCCN2C(=O)/C=C/CN(C)C)[nH]c2c1C(=O)NCC2  remaining binding (PIK3CA (Homo sapiens, UniProt P42336, H1047L); binding, competition with immobilised ligand; 3 µM): 64%
C=CC(=O)N1CCCC(n2c(=O)c3ncccc3n(Cc3ccc(Oc4ccccc4)cc3)c2=O)C1 (stereo not shown)  remaining binding (PIK3CA; cell-free assay, competition with immobilised ligand; 1 µM): 81%
CC(=O)N1c2ccc(-c3ccc(CNC(=O)c4cn5cc(-c6cnc(N)nc6)nc(N6CCOCC6)c5n4)cc3)cc2CC[C@@H]1C  remaining binding (PIK3CA; KINOMEscan; 10 µM): 0.75%
Cc1ccc(-c2c(/C=C(\C#N)C(=O)NC(C)C)n(CCCO)c3ncnc(N)c23)cc1  remaining binding (PIK3CA E545K; cell-free assay, competition with immobilised ligand; 1 µM): 100%
CC(=O)c1cnc(N)nc1N1CC[C@H]1c1nn2ccc(Cl)c2c(=O)n1-c1ccccc1  remaining binding (PIK3CA E545K; binding, competition with immobilised ligand; 10 µM): 59%
CNC1C[S+]2CC[S+]3CC[S+](C1)[Ru-4]321([N]=C=S)[n]2c3ccc(OC)cc3c3c4c(c5cc(F)c[n+]1c5c32)C(=O)NC4=O (stereo not shown)  remaining binding (PIK3CA (Homo sapiens, UniProt P42336, E542K); KinomeScan; 0.1 µM; baseline: untreated): 97%
